Published values gathered from unrelated publications.
Each numbered part is a random draw from the data of one study; scales do not carry over between parts.

Series 1 — method: RNA Bind-n-Seq; molecule type: RNA; sample: in vitro; concentration: 20 nM; setting: 6-mer, flanks averaged, single round; with: 150 mM LiCl; reference: input library; reading: higher = stronger binding
Target: TAR DNA-binding protein 43, full length, His tag (TARDBP, Homo sapiens, UniProt Q13148, residues 1-414)
For `CGUACC`, “6-mer enrichment (R)” read 0.861.
`GCAAAA`: “6-mer enrichment (R)” 0.839.
`CUGCUC` — result for “6-mer enrichment (R)”: 0.889.
Under “6-mer enrichment (R)”, `UAAAUU` is recorded as 0.992.
For `UCAAAC`, “6-mer enrichment (R)” read 0.811.
`UUUGGC` — result for “6-mer enrichment (R)”: 1.06.
For `AUGUCA`, “6-mer enrichment (R)” read 0.899.
Under “6-mer enrichment (R)”, `UAGCCC` is recorded as 1.02.
`CUGUUG`: “6-mer enrichment (R)” 1.06.
For `GGGGCU`, “6-mer enrichment (R)” read 1.16.
`GGCAGG`: “6-mer enrichment (R)” 1.17.
For `UGUUGA`, “6-mer enrichment (R)” read 1.17.
Under “6-mer enrichment (R)”, `CUUUAA` is recorded as 0.96.
`ACGGGG` — result for “6-mer enrichment (R)”: 1.11.

Series 2 — method: RNA Bind-n-Seq; molecule type: RNA; sample: in vitro; concentration: not given; reference: input RNA pool; reading: higher = stronger binding
Target: RING finger protein unkempt homolog, zinc fingers 1-6, GST-SBP tag (UNK, Homo sapiens, UniProt Q9C0B0, residues 30-357)
Setting: RNA with constant flanks, human and mouse sites, ends assumed
Construct (chain): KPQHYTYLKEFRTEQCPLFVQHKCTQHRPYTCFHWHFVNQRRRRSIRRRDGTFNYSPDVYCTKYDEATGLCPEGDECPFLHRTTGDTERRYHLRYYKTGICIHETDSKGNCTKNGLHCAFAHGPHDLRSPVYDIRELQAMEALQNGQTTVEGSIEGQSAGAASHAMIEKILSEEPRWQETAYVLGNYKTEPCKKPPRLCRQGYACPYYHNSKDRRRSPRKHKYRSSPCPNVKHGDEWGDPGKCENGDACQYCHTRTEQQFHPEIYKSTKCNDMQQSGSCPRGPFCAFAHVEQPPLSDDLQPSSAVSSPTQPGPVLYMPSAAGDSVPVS
`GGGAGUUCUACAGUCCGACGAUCUAUUCACAACUUGGAACAUUUGCACCAGUAUGGGAUGUAUUCAAAACAUCUACAGAGAAAUUAGCAAAUUGUCACUUGGAUCUUGUUAGAAAAUUACAAGAAUUAAUAAAGGAAGUUCAGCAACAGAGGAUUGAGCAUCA` gave a bound/input enrichment of 1.07 ratio.
The bound/input enrichment of `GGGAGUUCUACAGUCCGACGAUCCAAGAGCUGAGGGUAAGGGCAGGUAGGCGUGAGGCUGUGGACAUUUUCGGAAUGUUUUGGUUUUGUUUUUUUUAAACCGGGCAAUAUUGUGUUCAGUUCAAGCUGUGAAGAAAAAUAUAUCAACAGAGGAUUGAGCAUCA` is reported as 0.232 ratio.
For `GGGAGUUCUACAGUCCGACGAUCUCUUUCUAGUGUCAGCCUUCAGGGUGAUCUAGGAAAGAAUAACACUUCGGAAUGUGGCUUAUACUUUUAGAGAUUUAGAAAGAAAAUAUGUUACUAAGGCUUACAAUCAGAUUUUGUAUUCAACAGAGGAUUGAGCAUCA`, the bound/input enrichment was 131 ratio.
`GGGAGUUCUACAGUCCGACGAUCUGGGCACUGUAUCAGAUAGAUUACUUUUUAAAUGUAGAUAAAAUUUCAAAAAUGAAUGGCUAGUUUACGUGAUAGAUUAGGCUCUUACUACAUAUGUGUGUGUAUAUAUAUGUAUUUGAUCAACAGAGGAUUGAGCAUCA` gave a bound/input enrichment of 11.8 ratio.
`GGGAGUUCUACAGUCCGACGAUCCCACGGGCAGGGUCGCCCUGGCCCACAGCACGUGAGCCUGCACUCACUGCGGCCUUUGUAACAAAACCAGUUGUGGUCCUCAGCAUUUGAAGCAGCUGCAUACUUCAGAGUAAACUAUUUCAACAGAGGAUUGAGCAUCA` gave a bound/input enrichment of 0.112 ratio.
The bound/input enrichment of `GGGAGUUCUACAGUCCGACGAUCCGAUGUCCAGUUACUGUCUGUGGAGAUGUGCAUGGGCAAUUUCAUGAUCUCAUGGAACUGUUUAGAAUUGGUGGCAAAUCACCAGAUACAAAUUACUUGUUUAUGGGAGAUUAUGUUGACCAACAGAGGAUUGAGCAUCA` is reported as 0.267 ratio.
With `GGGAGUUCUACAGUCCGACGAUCUUGACUUUCUUUGUCAAUACCACAAACCAGCAAGCAAAAUUCCUGCCUUUCUAAAUGUGGUGGAUAUUGCUGGCCUUGUGAAAGGAGCUCACAAUGGGCAGGGCCUGGGGAAUGCUUUUUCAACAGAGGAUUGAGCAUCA` the bound/input enrichment was 0.243 ratio.
The bound/input enrichment of `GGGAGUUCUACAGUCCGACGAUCGACAUUCAGGAUGAGAUGGGCAGGCACGAAGUGGGCCACAUCGACAACUCCAUGAAGAUCCCGCUGAACAAUGGGGCAGGCUGCCGCUUCGAGGGGCAGUUCAGCAUCAACAAGGUCCCCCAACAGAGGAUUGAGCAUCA` is reported as 0.0328 ratio.

Series 3 — method: RNA Bind-n-Seq; molecule type: RNA; sample: in vitro; concentration: 365 nM; reference: no-protein control; reading: higher = stronger binding
Target: RNA binding protein fox-1 homolog 2, RRM domain, GST-SBP tag (RBFOX2, Homo sapiens, UniProt O43251-10, residues 100-194)
Setting: natural RNA segment, single round, ends assumed
Construct (chain): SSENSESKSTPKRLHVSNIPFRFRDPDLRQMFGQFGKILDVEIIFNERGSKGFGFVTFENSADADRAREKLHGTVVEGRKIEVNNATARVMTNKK
Under “RBNS enrichment (R)”, `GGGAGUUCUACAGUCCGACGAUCUUCUGACCUAAGUGGCAGGGCCCAGAAAUCCUGAAAACCUCCCGCUGCCUUUUGUGAUACUUCCUGUGCUCCCUCAGAGAGAAACGGAGUGACCUUUUGUCCUUUACCUGUGGAAUUCUCGGGUGCCAA` is recorded as 0.894.
`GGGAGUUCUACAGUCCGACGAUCGAGCACCCCCUGCUCCACCAGCAGCAUGGCUAGUGCCCAGCCUGGAGCCUCGGGGAGCCCCCCAGCCAGCCCUUGCCCUGCAGGAGAGACCGAGCAGCCACAAGCUGGAAUGGAAUUCUCGGGUGCCAA` — result for “RBNS enrichment (R)”: 0.427.
`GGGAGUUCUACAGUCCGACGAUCGUAUGUCAGCACUUUUGUCCUGUAACUGUAGAUCUGUCUCAAUUGAAGUUAACUCACUAUAUUCGGAAACUUACUGGCCUAGAGAAUUUUAUCCCAGGCAUUCUUAGAUGUGGAAUUCUCGGGUGCCAA`: “RBNS enrichment (R)” 4.18.
For `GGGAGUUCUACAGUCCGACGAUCACUACUCUCAUUCAGGAUUCUUGCUCCCAUGCUGCUGUCCCUUCAGGCUCACAUGCACAGGAAUGCUACAUGAUGGCCAGCUGCUUCCCUCCUUGGUUAUCAUCCACUGCUGGAAUUCUCGGGUGCCAA`, “RBNS enrichment (R)” read 0.659.
`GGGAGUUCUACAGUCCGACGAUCAGCUCUAAAGAUUUCAAAUAGUGGCAGACAGUGUCUUCUGAAUGUAAGUUUUGAGAAAUACGAGUCUGUCAGAGCGGCCAUAAGCCAUAAAGAGUCAAUCUCUUAAUUAUUGGAAUUCUCGGGUGCCAA`: “RBNS enrichment (R)” 0.336.
For `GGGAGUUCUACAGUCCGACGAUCUCUCCCCACGAAGGUCCCAGGGUGGCCAUUUAUACAAUCCAUUUCUGUCCUCUUUAUGGAAUGUAGUCGACGGAUAUUGCUGCACCUCAUCAGGCCAUUACAUUGUCCAUUGGAAUUCUCGGGUGCCAA`, “RBNS enrichment (R)” read 1.06.
`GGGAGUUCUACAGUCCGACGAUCGCUUAGGGUAGGGAUGGUAAAUAUCCUCCCUGCAUGGCUUUAUCCUCCCUCUCAUCCCAAAGCAGGUAUCUUCUGGUUGUCACAGAGUUUCAUUGAGUCCAGCUGCAGCCUGGAAUUCUCGGGUGCCAA` — result for “RBNS enrichment (R)”: 0.777.
`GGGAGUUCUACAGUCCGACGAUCGUCUUUCGCAUCAUAUUCGUUAGCAUUUAUUUGGUGGCAGAAUGUUUGCCUAGGUACAGAAUUAAUAGCCCUUAGCAACGACUGCUGCUGGUGUGUAUUUUUGUAAAUGUUGGAAUUCUCGGGUGCCAA` — result for “RBNS enrichment (R)”: 1.43.

Further values, each from its own experiment
For `PhoQ, residues 284 288 289 292 302 303 TTCLQL`, the fold induction was 7.57 (PhoP, residues 12 14 15 18 19 HEGLL (Escherichia coli, UniProt P23836); Sort-seq, item: YFP reporter; E. coli; PhoQ-PhoP variant library, with: 10 µM Mg2+; reference: high Mg2+ state, higher = stronger signaling).

Repeated from above (series 3):
For `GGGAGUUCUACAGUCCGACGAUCUCUCCCCACGAAGGUCCCAGGGUGGCCAUUUAUACAAUCCAUUUCUGUCCUCUUUAUGGAAUGUAGUCGACGGAUAUUGCUGCACCUCAUCAGGCCAUUACAUUGUCCAUUGGAAUUCUCGGGUGCCAA`, “RBNS enrichment (R)” read 1.06.
`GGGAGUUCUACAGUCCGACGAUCGCUUAGGGUAGGGAUGGUAAAUAUCCUCCCUGCAUGGCUUUAUCCUCCCUCUCAUCCCAAAGCAGGUAUCUUCUGGUUGUCACAGAGUUUCAUUGAGUCCAGCUGCAGCCUGGAAUUCUCGGGUGCCAA` — result for “RBNS enrichment (R)”: 0.777.
